Assay results of several laboratories.
Each numbered part is a random draw from the data of one study; scales do not carry over between parts. Changes are numbered by the printed parent chain.

Set 1
Target: Centromere-binding protein 1, full length, His-tagged (CBF1, Saccharomyces cerevisiae, UniProt P17106, residues 1-351)
UniProt P17106, sequence (whole entry, looked up): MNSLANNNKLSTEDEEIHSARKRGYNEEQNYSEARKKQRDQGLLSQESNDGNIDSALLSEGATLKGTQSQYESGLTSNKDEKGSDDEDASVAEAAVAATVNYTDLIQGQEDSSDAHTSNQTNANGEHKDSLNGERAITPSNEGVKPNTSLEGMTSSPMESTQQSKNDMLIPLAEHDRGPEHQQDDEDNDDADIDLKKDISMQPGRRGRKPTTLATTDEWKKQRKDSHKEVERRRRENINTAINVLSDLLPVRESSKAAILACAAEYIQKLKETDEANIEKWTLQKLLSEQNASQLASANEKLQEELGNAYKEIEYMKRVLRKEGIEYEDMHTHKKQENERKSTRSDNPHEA
Method: competition protein-binding microarray
Form: double-stranded DNA, one strand shown
Sample: in vitro
Concentration: 2 µM
Notes: whole 60-bp probe, lowest competitor level
Added: Pho4 competitor, 0.05 µM
Reading: higher = stronger binding
Shared flanks, not repeated: … GTCTTGATTCGCTTGACGCTGCTG
Strand | fluorescence intensity [a.u.]
GTCTTGTCTCATTGACGGGTGGGTGTCCCCACTTCA | 63.6
TTCTTCTCCACCTTCCTCGTGATGGTCAGAGCCATC | 174
CTGAAGTTGACCGGCCACGGGATTCGTCAAGTATGT | 101
AAGGTTTCGCCGTAGAACGTGCTTTCCAGTTCATGG | 112
TATTAGATAACTTAGCACGTGAAAAAGAAACGTTTT | 2150
CGAAACATAACGATAAACGTGGTGAAGTTTTCGATT | 107
TGTGGACAGGGTAGATTCGGAGCCGACGCTATAATT | 53.1
CTTACCGTCCACTTTAACGTGACGGAGCATCAAGAT | 132
CATCTAACTTTTTTGCACGTGAATTGGATCTTGAGT | 1140
TTATCATTGAAAATTCACGTGATGGCAATATTCCGG | 4660
TATCTTGACTATTGCCACGTTGCGGTAGGTGGTACG | 65.9
CTAACGAAGGTTTGGGTAGTGGGTGACAAGCCAAGT | 66.5
CAAAAGCTGGTGTCCCACGTCAAGCCATCAACTTGG | 56.2

Set 2
Target: Histone acetyltransferase KAT6A, both winged helices, GST fusion (KAT6A, Homo sapiens, UniProt Q92794, residues 1-181)
Method: protein binding microarray
Form: double-stranded DNA, one strand shown
Sample: in vitro
Concentration: not given
Notes: 8-mer, flanks averaged, mean of 2 arrays, mostly near background
Reference: not given
Reading: higher = stronger binding
Construct (chain): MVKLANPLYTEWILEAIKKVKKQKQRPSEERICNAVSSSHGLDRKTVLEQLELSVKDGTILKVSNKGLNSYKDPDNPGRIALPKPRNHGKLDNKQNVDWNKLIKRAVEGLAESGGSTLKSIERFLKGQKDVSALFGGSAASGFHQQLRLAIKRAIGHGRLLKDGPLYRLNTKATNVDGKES
Strand | E-score
AGTAGAAG | -0.197
CAGTCCTA | -0.141
AGTGAATA | -0.0669
ACAAGTAG | -0.258
CACTGCAC | -0.0917
CCTTGATC | -0.153
AAAGGGCG | 0.0541
ACGATAAA | -0.00264
GGACAATA | 0.0114
CGGTGCGC | 0.262
GTCTTTTA | -0.0839
TCAAACCA | 0.0624

Set 3
Target: CCNA1, cyclin fold, Cln2 fusion (human)
Method: yeast growth competition, sequencing
Sample: yeast
Notes: weak parent motif
Reference: not given
Reading: higher = stronger binding
Parent: CDKN1A docking peptide (human); SKACRRLFGPVDS
Substitution | normalised enrichment score
SKRCRRLFGPVDS [A3R] | -0.251
SKACRRLVGPVDS [F8V] | 0.33
SKACRRLFGQVDS [P10Q] | 0.229
SKACRRNFGPVDS [L7N] | 0.0615
SKACRALFGPVDS [R6A] | 0.151
SKACRRAFGPVDS [L7A] | 0.0667
SKACRRLFGDVDS [P10D] | 0.689
SKACRRLNGPVDS [F8N] | -0.228
SKACRRLFGPVGS [D12G] | 0.616
SKACRRPFGPVDS [L7P] | 0.182

Further values, each from its own experiment
Substance | target | assay | system | conditions | scale | quantity | value
PhoQ, residues 284 288 289 292 302 303 AGHLVA | PhoP, residues 12 14 15 18 19 AQCLL (Escherichia coli, UniProt P23836) | Sort-seq, item: YFP reporter | E. coli | PhoQ-PhoP variant library, added: 10 µM Mg2+ | reference: high Mg2+ state, higher = stronger signaling | fold induction | 5.78
